Measurements of several laboratories.
Compare with care: the assays were run in different laboratories. Values joined by “and” are separate records of one study, mostly repeats; a detail may differ. Numbers after ± are the reported error.
OPRD1: Delta-type opioid receptor (OPRD1, Homo sapiens, UniProt P41143)
Sequence of UniProt P41143 (whole entry, looked up): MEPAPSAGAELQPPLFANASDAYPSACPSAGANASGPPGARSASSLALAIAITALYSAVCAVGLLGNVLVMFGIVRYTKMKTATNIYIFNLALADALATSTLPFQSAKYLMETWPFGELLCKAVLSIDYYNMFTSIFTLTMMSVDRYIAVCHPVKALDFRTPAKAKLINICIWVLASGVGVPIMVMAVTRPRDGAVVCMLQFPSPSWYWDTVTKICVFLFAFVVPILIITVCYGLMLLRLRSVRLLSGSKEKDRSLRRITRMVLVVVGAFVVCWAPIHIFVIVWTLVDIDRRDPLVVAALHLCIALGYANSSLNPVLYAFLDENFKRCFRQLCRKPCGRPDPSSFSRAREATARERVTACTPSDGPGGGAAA
GABA-A receptor; alpha-1/beta-3/gamma-2: GABA-A receptor; alpha-1/beta-3/gamma-2 (Homo sapiens, UniProt P14867+P18507+P28472)
Sequence of UniProt P28472 (whole entry, looked up): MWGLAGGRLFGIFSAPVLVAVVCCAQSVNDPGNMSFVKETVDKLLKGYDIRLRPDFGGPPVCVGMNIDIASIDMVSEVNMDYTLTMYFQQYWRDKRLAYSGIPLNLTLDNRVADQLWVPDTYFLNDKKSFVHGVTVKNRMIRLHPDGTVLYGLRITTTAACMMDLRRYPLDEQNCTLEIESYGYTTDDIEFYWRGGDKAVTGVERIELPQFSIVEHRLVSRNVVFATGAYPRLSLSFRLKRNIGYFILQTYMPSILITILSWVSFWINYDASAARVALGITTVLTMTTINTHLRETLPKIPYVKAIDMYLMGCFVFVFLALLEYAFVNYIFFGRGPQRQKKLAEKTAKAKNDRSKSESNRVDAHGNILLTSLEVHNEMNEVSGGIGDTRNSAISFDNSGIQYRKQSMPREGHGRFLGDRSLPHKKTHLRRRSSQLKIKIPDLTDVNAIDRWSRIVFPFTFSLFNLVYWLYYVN
Sequence of UniProt P14867 (whole entry, looked up): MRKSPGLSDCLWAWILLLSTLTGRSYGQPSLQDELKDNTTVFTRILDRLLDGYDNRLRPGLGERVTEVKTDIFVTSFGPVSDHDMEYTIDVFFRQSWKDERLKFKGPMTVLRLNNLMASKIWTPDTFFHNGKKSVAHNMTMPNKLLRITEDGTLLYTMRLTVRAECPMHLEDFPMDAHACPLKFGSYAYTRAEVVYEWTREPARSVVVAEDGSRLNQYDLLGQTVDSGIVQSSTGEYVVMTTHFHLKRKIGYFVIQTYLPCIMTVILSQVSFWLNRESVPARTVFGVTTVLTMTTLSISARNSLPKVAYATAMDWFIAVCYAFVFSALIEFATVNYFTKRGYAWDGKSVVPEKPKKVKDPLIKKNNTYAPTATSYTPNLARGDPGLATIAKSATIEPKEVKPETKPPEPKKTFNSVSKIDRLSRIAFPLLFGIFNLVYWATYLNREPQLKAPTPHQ
Sequence of UniProt P18507 (whole entry, looked up): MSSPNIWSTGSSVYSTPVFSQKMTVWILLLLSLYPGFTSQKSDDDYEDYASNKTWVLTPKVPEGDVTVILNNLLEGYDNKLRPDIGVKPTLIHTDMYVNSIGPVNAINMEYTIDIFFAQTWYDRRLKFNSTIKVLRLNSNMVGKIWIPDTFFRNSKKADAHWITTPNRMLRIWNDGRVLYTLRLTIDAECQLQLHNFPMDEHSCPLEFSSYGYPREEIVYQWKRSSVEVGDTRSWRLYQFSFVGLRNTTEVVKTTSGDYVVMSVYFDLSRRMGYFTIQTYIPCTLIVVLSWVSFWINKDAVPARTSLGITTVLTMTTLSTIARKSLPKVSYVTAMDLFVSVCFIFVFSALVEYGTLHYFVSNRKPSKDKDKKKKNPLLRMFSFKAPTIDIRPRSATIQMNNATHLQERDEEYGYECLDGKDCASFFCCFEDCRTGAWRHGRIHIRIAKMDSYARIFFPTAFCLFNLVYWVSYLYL
Slc6a3: Sodium-dependent dopamine transporter (Slc6a3, Rattus norvegicus, UniProt P23977)
Sequence of UniProt Q01959 (whole entry, unmodified, looked up): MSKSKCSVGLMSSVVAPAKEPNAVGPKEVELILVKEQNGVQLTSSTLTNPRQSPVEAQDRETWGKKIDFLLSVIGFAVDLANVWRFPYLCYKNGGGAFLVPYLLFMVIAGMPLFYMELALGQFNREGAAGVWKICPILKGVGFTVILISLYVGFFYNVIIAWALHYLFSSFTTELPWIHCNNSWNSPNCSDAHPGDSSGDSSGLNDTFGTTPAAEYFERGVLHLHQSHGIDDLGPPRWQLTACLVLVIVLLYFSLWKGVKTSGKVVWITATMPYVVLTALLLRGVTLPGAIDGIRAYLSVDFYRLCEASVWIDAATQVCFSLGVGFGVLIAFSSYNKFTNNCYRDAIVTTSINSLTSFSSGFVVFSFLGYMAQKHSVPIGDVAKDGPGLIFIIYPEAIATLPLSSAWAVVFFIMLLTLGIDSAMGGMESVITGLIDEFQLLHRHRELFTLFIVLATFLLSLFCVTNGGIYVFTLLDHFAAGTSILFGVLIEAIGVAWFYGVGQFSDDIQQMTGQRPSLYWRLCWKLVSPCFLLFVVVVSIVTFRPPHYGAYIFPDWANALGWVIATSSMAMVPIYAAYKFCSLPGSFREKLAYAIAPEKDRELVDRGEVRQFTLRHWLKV
Sequence of UniProt P23977 (whole entry, looked up): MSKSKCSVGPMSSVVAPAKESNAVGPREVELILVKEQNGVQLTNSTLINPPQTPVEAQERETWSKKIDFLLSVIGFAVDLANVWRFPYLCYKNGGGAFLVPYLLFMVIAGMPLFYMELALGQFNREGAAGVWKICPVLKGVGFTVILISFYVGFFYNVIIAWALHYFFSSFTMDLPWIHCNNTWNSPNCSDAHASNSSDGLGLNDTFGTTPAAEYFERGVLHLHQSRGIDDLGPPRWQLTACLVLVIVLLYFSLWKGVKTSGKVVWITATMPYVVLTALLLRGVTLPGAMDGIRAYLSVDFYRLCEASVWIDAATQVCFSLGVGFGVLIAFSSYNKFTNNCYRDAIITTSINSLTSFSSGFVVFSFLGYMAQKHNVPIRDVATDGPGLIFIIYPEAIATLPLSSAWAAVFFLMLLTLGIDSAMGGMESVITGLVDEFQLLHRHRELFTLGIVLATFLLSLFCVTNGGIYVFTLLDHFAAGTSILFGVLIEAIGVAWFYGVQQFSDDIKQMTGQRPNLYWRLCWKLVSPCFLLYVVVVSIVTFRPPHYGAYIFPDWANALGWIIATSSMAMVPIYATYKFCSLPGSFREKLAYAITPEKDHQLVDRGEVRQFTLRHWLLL
Sequence of UniProt P18089 (whole entry, looked up): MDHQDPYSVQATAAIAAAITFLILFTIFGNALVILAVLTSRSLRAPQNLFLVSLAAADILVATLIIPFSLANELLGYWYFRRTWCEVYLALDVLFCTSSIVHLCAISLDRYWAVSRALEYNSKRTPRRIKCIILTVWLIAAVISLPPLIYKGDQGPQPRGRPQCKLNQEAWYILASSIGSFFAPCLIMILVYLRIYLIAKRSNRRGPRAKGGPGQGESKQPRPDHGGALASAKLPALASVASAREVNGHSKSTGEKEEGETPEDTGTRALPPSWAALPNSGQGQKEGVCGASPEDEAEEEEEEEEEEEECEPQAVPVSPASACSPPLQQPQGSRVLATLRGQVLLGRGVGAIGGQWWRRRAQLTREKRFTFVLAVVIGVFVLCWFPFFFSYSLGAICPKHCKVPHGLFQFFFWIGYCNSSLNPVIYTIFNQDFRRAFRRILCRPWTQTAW
Sequence of UniProt O00155 (whole entry, looked up): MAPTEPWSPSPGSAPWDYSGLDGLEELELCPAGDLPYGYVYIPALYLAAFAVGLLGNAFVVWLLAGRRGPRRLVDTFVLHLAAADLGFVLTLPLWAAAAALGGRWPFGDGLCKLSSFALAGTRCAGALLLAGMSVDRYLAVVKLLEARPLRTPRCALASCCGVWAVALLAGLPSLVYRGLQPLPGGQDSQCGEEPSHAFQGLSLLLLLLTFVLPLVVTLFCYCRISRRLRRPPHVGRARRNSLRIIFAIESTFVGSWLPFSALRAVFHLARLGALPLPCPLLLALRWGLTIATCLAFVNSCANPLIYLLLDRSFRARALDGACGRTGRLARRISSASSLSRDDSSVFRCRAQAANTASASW
Sequence of UniProt P49116 (whole entry, looked up): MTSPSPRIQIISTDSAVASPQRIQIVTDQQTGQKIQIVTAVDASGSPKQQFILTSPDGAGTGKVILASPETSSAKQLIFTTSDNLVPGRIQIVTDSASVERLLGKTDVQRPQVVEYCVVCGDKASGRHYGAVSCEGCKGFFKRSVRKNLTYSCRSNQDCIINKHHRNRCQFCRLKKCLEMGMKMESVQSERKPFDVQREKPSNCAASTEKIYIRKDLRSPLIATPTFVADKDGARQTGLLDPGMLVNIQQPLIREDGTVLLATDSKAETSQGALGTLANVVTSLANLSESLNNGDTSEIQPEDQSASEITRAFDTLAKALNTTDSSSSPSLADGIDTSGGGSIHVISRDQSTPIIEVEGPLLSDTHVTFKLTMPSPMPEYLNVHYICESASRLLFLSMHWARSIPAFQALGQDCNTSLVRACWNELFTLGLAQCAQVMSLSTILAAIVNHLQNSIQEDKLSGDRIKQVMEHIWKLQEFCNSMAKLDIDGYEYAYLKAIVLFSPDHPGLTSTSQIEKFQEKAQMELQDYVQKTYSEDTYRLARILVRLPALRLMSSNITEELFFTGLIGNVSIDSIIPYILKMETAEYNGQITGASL
Sequence of UniProt P28223 (whole entry, looked up): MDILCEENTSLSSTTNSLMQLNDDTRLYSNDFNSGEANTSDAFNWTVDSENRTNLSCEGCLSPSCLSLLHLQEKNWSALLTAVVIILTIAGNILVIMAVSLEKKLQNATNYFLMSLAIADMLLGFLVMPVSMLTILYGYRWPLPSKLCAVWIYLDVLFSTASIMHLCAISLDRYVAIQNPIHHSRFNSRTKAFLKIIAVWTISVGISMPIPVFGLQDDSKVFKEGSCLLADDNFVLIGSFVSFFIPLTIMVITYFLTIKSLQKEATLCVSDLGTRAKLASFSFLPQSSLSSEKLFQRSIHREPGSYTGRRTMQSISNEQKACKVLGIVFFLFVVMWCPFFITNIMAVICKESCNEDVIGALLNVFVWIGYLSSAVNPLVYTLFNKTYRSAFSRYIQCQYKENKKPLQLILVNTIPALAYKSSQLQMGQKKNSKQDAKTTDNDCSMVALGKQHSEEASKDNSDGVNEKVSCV

`O=C(O)c1nccnc1NC(=O)c1cccc2ccccc12`: “enzyme inhibition enhancement” 1000 fold (Aspartate 1-decarboxylase (panD, Mycobacterium tuberculosis, UniProt P9WIL3); concentration not given; baseline: pyrazinoic acid).
For `OC[C@H]1N[C@H](CO)[C@@H](O[C@H]2O[C@H](CO)[C@@H](O)[C@H](O)[C@H]2O)[C@@H]1O`, PNP inhibition read “no inhibition” (purine nucleoside phosphorylase; enzyme activity; concentration not given, pH 7.5, coupling enzyme control, added: MESG 1 mM).
`CS(=O)(=O)c1ccc(C(=O)N[C@H]2CC[C@@]3(O)[C@H]4Cc5ccc(O)c6c5[C@@]3(CCN4CC3CC3)[C@H]2O6)s1.Cl` has a selectivity ratio of 22.7 (OPRD1; radioligand binding; CHO membranes; baseline: Ki µ over Ki δ).
For `CCOc1ccccc1C(=O)Nc1ccc(Cl)c(C(F)(F)F)c1`, “SPR binding response” read 0.124 RU (KAT5 (Homo sapiens, UniProt Q92993); SPR; 0.07 µM; higher = more binding).
`COc1cc(CCNC(C)c2ccccc2O)c(OC)cc1C#N.Cl` (centres unmarked) has a selectivity ratio of 2450 fold (HTR2A (Homo sapiens, UniProt P28223); Gq signalling, item: IP1; 60 min; baseline: 5-HT2A over 5-HT2C).
With `CCCc1cc(O)c2c(c1)OC(C)(C)[C@@H]1CCC(C)=C[C@@H]21` the Hill coefficient was 2.95 ± 0.42 (TRPV3 (Homo sapiens, UniProt Q8NET8, N561A); calcium uptake, agonist; HEK293S; mutant N561A, site 1).
For `Oc1ccc2c3c1O[C@H]1[C@@H](O)CC[C@@]4(O)[C@@H](C2)N(CC2CCC2)CC[C@]314`, “log2 fold change” read 0.352 (Probable G-protein coupled receptor 25 (GPR25, Homo sapiens, UniProt O00155); β-arrestin recruitment, TANGO luminescence, item: GPR25; concentration not given; baseline: basal luminescence).
With `C[C@]12CC[C@H](O)CC1=CC[C@@H]1[C@@H]2CC[C@]2(C)C(=O)CC[C@@H]12` the Km was 3.7 µM (HSD3B1 (Homo sapiens, UniProt P14060); substrate).
`CCN(CC)C(=O)[C@@H]1C=C2c3cccc4[nH]cc(c34)C[C@H]2N(C)C1`: activity class “inactive” (ACHE (Homo sapiens, UniProt P22303); biochemical; concentration not given).
For `CC(C)c1ccc2c(c1)C1(CC2)C(=O)NC(=O)NC1=O`, the Emax was 26% (GABA-A receptor; alpha-1/beta-3/gamma-2; 300 µM).
With `Cl.NS(=O)(=O)c1ccc(C(=O)N[C@H]2CC[C@@]3(O)[C@H]4Cc5ccc(O)c6c5[C@@]3(CCN4CC3CC3)[C@H]2O6)s1` the selectivity ratio was 19.6 (OPRD1; radioligand binding; CHO membranes; baseline: Ki µ over Ki δ).
`CC(C)N(CCC(C(N)=O)(c1ccccc1)c1ccccn1)C(C)C` (centres unmarked) has an inhibition of 0% (Genome polyprotein, NS3 helicase domain (Hepatitis C virus genotype 1b, UniProt Q9WMX2); DNA binding, inhibitor; hepatitis C virus; 100 µM, added: Cy5-dT15 DNA).
With `O=C1NC(=S)NC(=O)C12CCc1ccc(Br)cc12` the Emax was 43% (GABA-A receptor; alpha-1/beta-3/gamma-2; 300 µM).
`CCC(C(=O)c1ccc2c(c1)OCO2)N(C)C` (centres unmarked): EC50 “inactive” (Slc6a3; substrate release, releaser; rat brain synaptosomes; added: [3H]MPP+ 9 nM).
With `Brc1ccc2c(c1)C(c1ccccn1)=NCc1c(-c3cnco3)ncn1-2` the selectivity ratio was 5.6 fold (ADRA2B (Homo sapiens, UniProt P18089); radioligand binding; rat; added: [3H]rauwolscine; baseline: alpha2B over benzodiazepine site).
With `O=C1NC(=O)C2(CCc3ccc(Cl)cc32)C(=O)N1` the Emax was 15% (GABA-A receptor; alpha-1/beta-3/gamma-2; 300 µM).
The binding affinity of `CN(C[C@@H]1COCCO1)S(=O)(=O)Nc1ccc2ccc3ncc(-c4cnn(C)c4)cc3c(=O)c2c1` is reported as 47 fold (MET (Homo sapiens, UniProt P08581, C1091S/C1146S/K1232C/L1195V); concentration not given; baseline: wild type).
`CN1C(=O)NC(=O)[C@]2(CCc3ccccc32)C1=O` gave an Emax of 16% (GABA-A receptor; alpha-1/beta-3/gamma-2; 300 µM).
With `CCCCCCC(C)(C)c1ccc([C@@H]2C[C@H](O)CC[C@H]2CCCO)c(O)c1` the Emax was 91.3 ± 1.8% (CNR1 (Homo sapiens, UniProt P21554, I267L/L193I/L359V); cAMP inhibition, agonist, CAMYEL biosensor; triple mutant receptor, added: forskolin 10 µM; baseline: wild-type receptor).
For `CCCC(NC)C(=O)c1ccc2c(c1)OCO2` (racemic), EC50 read “inactive” (Slc6a3; substrate release, releaser; rat brain synaptosomes; added: [3H]MPP+ 9 nM).
`Cc1ccc(C(=O)Nc2ccc(Oc3cc4cnn(C)c4cc3-c3cn[nH]c3)c(F)c2)c(=O)n1-c1ccc(F)cc1`: “Kd fold change” at most 1.5 fold (MET (Homo sapiens, UniProt P08581, C1091S/C1146S/F1200I/K1232C); concentration not given; baseline: wild type).
The Emax of `COc1ccc2c(c1)C1(CC2)C(=O)NC(=O)N(C)C1=O` (centres unmarked) is reported as 36% (GABA-A receptor; alpha-1/beta-3/gamma-2; 300 µM).
For `Nc1ncnc2c1ncn2[C@@H]1O[C@H](COP(=O)(O)OP(=O)(O)OP(=O)(O)O)[C@@H](O)[C@H]1O`, the Km was 2 µM (MET (Homo sapiens, UniProt P08581, F1200I); substrate).
The Emax of `COc1ccc2c(c1)C1(CC2)C(=O)NC(=S)NC1=O` is reported as 20% (GABA-A receptor; alpha-1/beta-3/gamma-2; 300 µM).
With `CN[C@@]1(c2ccccc2Cl)CCCCC1=O` the inhibition was 1% (CHRNA7 (Homo sapiens, UniProt P36544); radioligand binding, antagonist, radioligand displacement; 30 µM).
The koff of `Cc1cccc(C(C)c2cnc[nH]2)c1C` (centres unmarked) is reported as 9.62e-06 s⁻¹ (Nuclear receptor subfamily 2 group C member 2, ligand-binding domain (Homo sapiens, UniProt P49116); binding).
`Oc1cccc([C@]23CCC[C@H]([C@H]2O)N(CC=Cc2ccccc2)CC3)c1` gave an efficacy of 51 ± 3.7% (Oprd1 (Rattus norvegicus, UniProt P33533); agonist; C6 cells expressing delta opioid receptor; 10 µM; baseline: DPDPE).
For `c1ccc2cc([C@]34CNC[C@H]3C4)ccc2c1`, the dopamine uptake was 70.1% and 63.3% and 71.2% (SLC6A3 (Homo sapiens, UniProt Q01959, F326A); inhibitor, [3H]dopamine uptake; 1 µM, F326A mutant; baseline: no inhibitor).
`CC(=O)S(=O)(=O)c1ccc(C(=O)N[C@H]2CC[C@@]3(O)[C@H]4Cc5ccc(O)c6c5[C@@]3(CCN4CC3CC3)[C@H]2O6)s1.Cl` gave a selectivity ratio of 23.7 (OPRD1; radioligand binding; CHO membranes; baseline: Ki µ over Ki δ).

Some of these lines once more:
`O=C(O)c1nccnc1NC(=O)c1cccc2ccccc12`: “enzyme inhibition enhancement” 1000 fold (Aspartate 1-decarboxylase (panD, Mycobacterium tuberculosis, UniProt P9WIL3); concentration not given; baseline: pyrazinoic acid).
`CN1C(=O)NC(=O)[C@]2(CCc3ccccc32)C1=O` gave an Emax of 16% (GABA-A receptor; alpha-1/beta-3/gamma-2; 300 µM).
With `O=C1NC(=S)NC(=O)C12CCc1ccc(Br)cc12` the Emax was 43% (GABA-A receptor; alpha-1/beta-3/gamma-2; 300 µM).
